Results pooled from the literature.
Compare with care: the assays were run in different laboratories. ± gives the spread as reported.
tmk: Thymidylate kinase (tmk, Mycobacterium tuberculosis, UniProt P9WKE1)
Sequence of UniProt P9WKE1 (whole entry, looked up): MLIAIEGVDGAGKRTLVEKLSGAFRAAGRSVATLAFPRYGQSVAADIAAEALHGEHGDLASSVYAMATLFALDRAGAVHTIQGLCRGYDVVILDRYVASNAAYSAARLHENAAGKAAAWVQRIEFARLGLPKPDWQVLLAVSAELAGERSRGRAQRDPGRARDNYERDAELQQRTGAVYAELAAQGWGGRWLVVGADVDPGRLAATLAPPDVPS
SRC: Proto-oncogene tyrosine-protein kinase Src (SRC, Gallus gallus, UniProt P00523)
CNR1: Cannabinoid receptor 1 (CNR1, Homo sapiens, UniProt P21554)
Sequence of UniProt P21554 (whole entry, unmodified, looked up): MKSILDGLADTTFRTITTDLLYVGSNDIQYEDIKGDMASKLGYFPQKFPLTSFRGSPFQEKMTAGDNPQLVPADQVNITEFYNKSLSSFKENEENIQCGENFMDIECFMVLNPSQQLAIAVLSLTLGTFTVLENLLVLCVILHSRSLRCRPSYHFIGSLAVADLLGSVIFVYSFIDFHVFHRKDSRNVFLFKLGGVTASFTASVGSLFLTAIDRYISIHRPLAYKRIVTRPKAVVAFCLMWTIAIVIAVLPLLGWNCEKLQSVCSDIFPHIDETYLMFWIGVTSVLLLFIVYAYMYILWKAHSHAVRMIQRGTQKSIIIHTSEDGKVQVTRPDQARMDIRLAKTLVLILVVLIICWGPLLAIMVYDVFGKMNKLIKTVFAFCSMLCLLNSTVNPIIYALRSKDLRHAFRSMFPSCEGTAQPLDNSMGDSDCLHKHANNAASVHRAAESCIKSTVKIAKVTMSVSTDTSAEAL
Sequence of UniProt P45983 (whole entry, looked up): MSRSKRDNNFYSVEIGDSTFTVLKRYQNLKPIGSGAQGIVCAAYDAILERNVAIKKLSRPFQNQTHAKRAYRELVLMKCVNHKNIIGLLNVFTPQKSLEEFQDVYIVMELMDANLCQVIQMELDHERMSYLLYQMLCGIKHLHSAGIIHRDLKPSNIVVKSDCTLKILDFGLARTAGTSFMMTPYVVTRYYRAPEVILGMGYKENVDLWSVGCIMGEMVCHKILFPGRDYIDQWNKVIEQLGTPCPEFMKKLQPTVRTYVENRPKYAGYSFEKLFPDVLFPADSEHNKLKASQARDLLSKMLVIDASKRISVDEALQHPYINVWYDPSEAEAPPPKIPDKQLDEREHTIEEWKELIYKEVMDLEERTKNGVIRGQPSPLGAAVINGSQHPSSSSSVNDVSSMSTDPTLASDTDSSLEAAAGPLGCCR
Sequence of UniProt Q14790 (whole entry, looked up): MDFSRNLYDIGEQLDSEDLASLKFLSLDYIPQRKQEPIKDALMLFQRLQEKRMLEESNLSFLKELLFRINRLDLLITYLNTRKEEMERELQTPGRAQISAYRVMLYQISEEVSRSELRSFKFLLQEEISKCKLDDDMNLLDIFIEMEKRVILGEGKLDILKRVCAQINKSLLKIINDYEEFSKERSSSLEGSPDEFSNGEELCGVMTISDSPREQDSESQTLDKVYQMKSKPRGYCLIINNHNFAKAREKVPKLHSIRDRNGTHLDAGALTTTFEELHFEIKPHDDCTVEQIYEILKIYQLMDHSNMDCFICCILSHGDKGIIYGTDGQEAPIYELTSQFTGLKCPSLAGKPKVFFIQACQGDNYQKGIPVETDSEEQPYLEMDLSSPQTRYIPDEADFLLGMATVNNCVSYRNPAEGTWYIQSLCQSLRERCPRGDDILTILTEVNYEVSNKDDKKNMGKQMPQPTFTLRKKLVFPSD
Sequence of UniProt P41586 (whole entry, unmodified, looked up): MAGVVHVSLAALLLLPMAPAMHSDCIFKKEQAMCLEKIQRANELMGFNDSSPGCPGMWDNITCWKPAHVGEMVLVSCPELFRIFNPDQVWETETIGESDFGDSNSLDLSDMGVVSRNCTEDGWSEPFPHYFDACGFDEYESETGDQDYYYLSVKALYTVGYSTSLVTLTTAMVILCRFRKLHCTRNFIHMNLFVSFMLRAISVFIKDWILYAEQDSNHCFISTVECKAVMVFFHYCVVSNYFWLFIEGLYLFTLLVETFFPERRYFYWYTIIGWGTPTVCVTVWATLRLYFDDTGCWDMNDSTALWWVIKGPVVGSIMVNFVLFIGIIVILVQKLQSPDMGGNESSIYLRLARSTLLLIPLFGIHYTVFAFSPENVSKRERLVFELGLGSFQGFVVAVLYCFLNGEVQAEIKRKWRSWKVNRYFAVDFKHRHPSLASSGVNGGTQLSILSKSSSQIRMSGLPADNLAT
Sequence of UniProt P45974 (whole entry, looked up): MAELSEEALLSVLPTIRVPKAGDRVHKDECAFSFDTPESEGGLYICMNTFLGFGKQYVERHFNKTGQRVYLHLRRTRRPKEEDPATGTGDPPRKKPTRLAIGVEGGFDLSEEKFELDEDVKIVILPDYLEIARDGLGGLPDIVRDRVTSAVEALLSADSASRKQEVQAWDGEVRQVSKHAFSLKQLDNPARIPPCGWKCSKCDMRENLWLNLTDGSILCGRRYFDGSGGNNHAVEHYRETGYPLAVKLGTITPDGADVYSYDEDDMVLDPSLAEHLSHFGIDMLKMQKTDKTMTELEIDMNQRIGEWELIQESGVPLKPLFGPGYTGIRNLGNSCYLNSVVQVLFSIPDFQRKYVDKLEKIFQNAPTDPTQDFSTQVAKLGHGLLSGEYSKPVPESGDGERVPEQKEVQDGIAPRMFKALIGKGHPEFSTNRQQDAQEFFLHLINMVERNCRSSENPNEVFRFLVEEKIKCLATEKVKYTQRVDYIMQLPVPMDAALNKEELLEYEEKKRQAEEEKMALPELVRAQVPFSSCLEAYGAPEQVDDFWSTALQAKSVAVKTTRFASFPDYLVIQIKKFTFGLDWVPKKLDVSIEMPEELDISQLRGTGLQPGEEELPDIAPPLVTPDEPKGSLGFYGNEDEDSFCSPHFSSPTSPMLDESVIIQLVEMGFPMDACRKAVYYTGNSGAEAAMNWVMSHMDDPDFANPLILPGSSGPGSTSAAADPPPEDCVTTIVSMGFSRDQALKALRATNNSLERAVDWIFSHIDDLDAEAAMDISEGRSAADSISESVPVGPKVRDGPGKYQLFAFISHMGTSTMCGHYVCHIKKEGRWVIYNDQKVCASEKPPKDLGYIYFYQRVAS
Sequence of UniProt Q01959 (whole entry, looked up): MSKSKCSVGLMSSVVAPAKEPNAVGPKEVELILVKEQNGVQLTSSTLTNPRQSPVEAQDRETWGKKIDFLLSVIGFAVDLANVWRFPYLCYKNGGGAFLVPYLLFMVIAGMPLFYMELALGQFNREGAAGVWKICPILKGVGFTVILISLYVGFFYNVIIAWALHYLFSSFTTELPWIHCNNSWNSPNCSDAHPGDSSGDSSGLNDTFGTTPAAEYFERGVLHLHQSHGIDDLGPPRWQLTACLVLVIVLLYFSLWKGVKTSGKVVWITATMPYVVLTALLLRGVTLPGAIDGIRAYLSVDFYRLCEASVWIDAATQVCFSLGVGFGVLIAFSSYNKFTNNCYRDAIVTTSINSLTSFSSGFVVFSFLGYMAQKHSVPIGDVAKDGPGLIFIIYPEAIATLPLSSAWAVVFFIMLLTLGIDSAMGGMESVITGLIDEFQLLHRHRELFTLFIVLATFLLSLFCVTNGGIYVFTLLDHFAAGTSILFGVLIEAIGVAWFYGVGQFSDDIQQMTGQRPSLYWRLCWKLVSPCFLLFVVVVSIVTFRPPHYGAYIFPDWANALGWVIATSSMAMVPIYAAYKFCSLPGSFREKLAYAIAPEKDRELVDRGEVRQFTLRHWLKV
Sequence of UniProt P34972 (whole entry, looked up): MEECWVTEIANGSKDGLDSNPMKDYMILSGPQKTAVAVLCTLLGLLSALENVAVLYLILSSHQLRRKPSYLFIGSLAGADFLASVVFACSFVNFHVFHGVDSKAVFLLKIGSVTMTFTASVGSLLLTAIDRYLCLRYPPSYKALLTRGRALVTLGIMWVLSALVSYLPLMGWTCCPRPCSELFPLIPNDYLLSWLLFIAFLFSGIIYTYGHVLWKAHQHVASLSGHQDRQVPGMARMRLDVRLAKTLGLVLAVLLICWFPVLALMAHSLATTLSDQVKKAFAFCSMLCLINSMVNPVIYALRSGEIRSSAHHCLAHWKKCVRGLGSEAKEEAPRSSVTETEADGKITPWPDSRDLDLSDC
Sequence of UniProt P08631 (whole entry, unmodified, looked up): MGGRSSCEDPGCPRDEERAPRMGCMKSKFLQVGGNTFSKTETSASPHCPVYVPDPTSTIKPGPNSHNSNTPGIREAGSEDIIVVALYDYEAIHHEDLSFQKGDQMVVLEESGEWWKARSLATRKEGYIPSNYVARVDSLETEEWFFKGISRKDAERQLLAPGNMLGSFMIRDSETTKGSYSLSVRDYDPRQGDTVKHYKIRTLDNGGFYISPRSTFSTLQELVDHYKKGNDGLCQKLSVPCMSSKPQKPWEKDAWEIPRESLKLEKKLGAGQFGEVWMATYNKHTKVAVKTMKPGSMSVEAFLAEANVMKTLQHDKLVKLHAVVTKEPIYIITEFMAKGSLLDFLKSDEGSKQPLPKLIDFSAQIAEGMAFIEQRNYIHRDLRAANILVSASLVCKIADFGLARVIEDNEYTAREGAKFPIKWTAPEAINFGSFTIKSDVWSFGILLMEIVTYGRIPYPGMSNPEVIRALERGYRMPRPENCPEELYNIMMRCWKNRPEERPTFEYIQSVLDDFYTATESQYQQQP

NC[C@@H](CC[C@H](N)C(=O)O)C[C@H]1O[C@@H](n2cnc3c(N)ncnc32)[C@H](O)[C@@H]1O — Hill slope (Replicase polyprotein 1ab, nsp10-nsp16 complex (rep, Human coronavirus 229E, UniProt P0C6X1)): -0.8
CCOC(=O)C1=C(C)NC(=NN=C2C(=O)Nc3ccccc32)NC1c1ccc(F)cc1 (centres unmarked) — inhibition (tmk; enzyme activity, inhibitor, absorbance; 0.1 µg/mL): 40.6%
Cc1ccc(C(=O)Nc2ccc(CN3CCN(C)CC3)c(C(F)(F)F)c2)cc1C#Cc1cnc2cccnn12 — bound fraction (HCK (Homo sapiens, UniProt P08631, Y411F); concentration not given): 97%
CC(C)CC(C(=O)N1CC2(CC1C#N)C(=O)Nc1ccccc12)N(C)C(=O)c1cc2c(F)cc(F)c(F)c2[nH]1 (centres unmarked) — Hill slope (Caspase-8 (CASP8, Homo sapiens, UniProt Q14790)): -0.37
COc1ccccc1C(C[N+](=O)[O-])c1c(-c2ccccc2)[nH]c2ccccc12 (centres unmarked) — Emax (CNR1 (Homo sapiens, UniProt P21554, L165A); Gαi1-γ2 dissociation, BRET): 82.2 ± 2.11%
CN1C(=O)C(=Cc2ccc(I)o2)C(=O)NC1=S — inhibition (USP5 (Homo sapiens, UniProt P45974); enzyme activity, inhibitor; 17 µM): 34%
Nc1ccc(/C=C/C(=O)N2CCc3c(oc4c(-c5ccc(F)cc5)cc(-c5ccc(C(=O)N6CCC(F)(F)CC6)cn5)cc34)C2)cn1 — remaining binding (MAPK8 (Homo sapiens, UniProt P45983); binding, competition with immobilised ligand; 1 µM): 99%
Cc1ccc2c(C(C[N+](=O)[O-])c3cccs3)c(-c3ccccc3)[nH]c2c1 (centres unmarked) — Emax (CNR1 (Homo sapiens, UniProt P21554, I245F); Gαi1-γ2 dissociation, BRET): 112 ± 7.05%
CCCCCn1cc(C(=O)c2cccc3ccccc23)c2ccccc21 — Emax (CNR2 (Homo sapiens, UniProt P34972); cAMP inhibition, agonist, CAMYEL BRET biosensor; added: forskolin 10 µM; reference: reference agonist at wild type): 79.6 ± 4%
CC(C)(C)n1nc(-c2ccc(Cl)cc2)c2c(N)ncnc21 — bound fraction (SRC; concentration not given): 92%
CCC[C@@H](C(=O)c1ccccc1)N1CCCC1 — koff (SLC6A3 (Homo sapiens, UniProt Q01959); DAT-mediated current recovery, electrophysiology; human DAT-expressing cells; added: 30 µM dopamine): 0.028 s⁻¹
O=[N+]([O-])CC(c1ccco1)c1c(-c2ccccc2)[nH]c2ccccc12 (centres unmarked) — Emax (Cannabinoid receptor 1, with Gi1 (CNR1, Homo sapiens, UniProt P21554); Gi1 dissociation, agonist, BRET): 69.5 ± 5.42%
CCOC(=O)C1=C(C)NC(=NN=C2C(=O)Nc3ccc(C)cc32)NC1c1ccc(F)cc1 (centres unmarked) — inhibition (tmk; enzyme activity, inhibitor, absorbance; 0.1 µg/mL): 52.7%
CCCCCn1cc(C(=O)c2cccc3c2CC(C)(C)C3)c2ccccc21 — Emax (CNR1; GαoA activation, agonist, BRET; reference: reference agonist): 64.3 ± 3.5%
O=C(NC1CCN(c2ncnc3[nH]cnc23)CC1)c1cccc(NS(=O)(=O)c2ccc(C(F)(F)F)cc2)c1 — inhibition (Replicase polyprotein 1ab, nsp14 (rep, Human coronavirus 229E, UniProt P0C6X1); enzyme activity; 3.125 µM): 36.7%
CNCCc1c[nH]c2ccc(O)cc12 — Km (NMT from Rhinella marina; 10 min, 30 °C): 60.8 ± 15.8 µM
Cc1cn(C2CC(O)C(COP(=O)(O)O)O2)c(=O)[nH]c1=O (centres unmarked) — inhibition (tmk; enzyme activity, inhibitor, absorbance; 1 µg/mL): 73.5%
CC[C@H](C)[C@H](NC(=O)[C@H](CO)NC(=O)[C@H](CC(N)=O)NC(=O)[C@H](CC(C)C)NC(=O)[C@H](Cc1ccc(O)cc1)NC(=O)[C@H](CCCCN)NC(=O)[C@H](CCCCN)NC(=O)[C@@H](NC(=O)[C@H](C)NC(=O)[C@H](CCSC)NC(=O)[C@H](CCC(N)=O)NC(=O)[C@H](CCCCN)NC(=O)[C@H](CCCNC(=N)N)NC(=O)[C@H](CC(C)C)NC(=O)[C@H](CCCNC(=N)N)NC(=O)[C@@H](NC(=O)[C@H](Cc1ccc(O)cc1)NC(=O)[C@H](CC(N)=O)NC(=O)[C@H](CC(=O)O)NC(=O)[C@@H](NC(=O)[C@H](Cc1ccccc1)NC(=O)[C@@H](NC(=O)[C@H](C)NC(=O)[C@H](CC(=O)O)NC(=O)[C@H](CO)NC(=O)[C@@H](N)Cc1c[nH]cn1)C(C)C)[C@@H](C)O)[C@@H](C)O)C(C)C)C(=O)N[C@@H](CC(C)C)C(=O)N[C@@H](CC(N)=O)C(N)=O — Emax (ADCYAP1R1 (Homo sapiens, UniProt P41586, del89-109); calcium mobilization, agonist, Fluo-8 AM; COS-7; AUC over 2 min): 69 ± 3%
CCCCCn1cc(C(=O)c2ccc3ccccc3c2)c2ccccc21 — Emax (CNR1; cAMP inhibition, agonist, CAMYEL BRET biosensor; added: forskolin 10 µM; reference: reference agonist at wild type): 106 ± 6.7%
CCOC(=O)C1=C(C)NC(=S)NC1c1ccc([N+](=O)[O-])o1 (racemic) — inhibition (tmk; enzyme activity, inhibitor, absorbance; 0.01 µg/mL): 33.9%
Nc1ncnc2c1c(-c1ccc(Oc3ccccc3)cc1)nn2C1CCCC1 — bound fraction (SRC; concentration not given): 85%
CCCCCn1cc(C(=O)c2ccc3c(c2)CC(C)(C)C3)c2ccccc21 — Emax (CNR1 (Homo sapiens, UniProt P21554, I267L/L193I/L359V); cAMP inhibition, agonist, CAMYEL BRET biosensor; added: forskolin 10 µM; reference: reference agonist at wild type): 100 ± 3.3%
Cc1sc2c(c1C)C(c1ccc(Cl)cc1)=N[C@@H](CC(=O)OC(C)(C)C)c1nnc(C)n1-2 — ΔG (Bromodomain testis-specific protein, BD1 (BRDT, Homo sapiens, UniProt Q58F21); isothermal titration calorimetry; 15 °C, reverse titration): -8.3 kcal/mol
